# Assay results from different studies.
# Parts stem from different laboratories: compare values within a part only.
# Sequence of UniProt Q9BWU1 (whole entry, looked up): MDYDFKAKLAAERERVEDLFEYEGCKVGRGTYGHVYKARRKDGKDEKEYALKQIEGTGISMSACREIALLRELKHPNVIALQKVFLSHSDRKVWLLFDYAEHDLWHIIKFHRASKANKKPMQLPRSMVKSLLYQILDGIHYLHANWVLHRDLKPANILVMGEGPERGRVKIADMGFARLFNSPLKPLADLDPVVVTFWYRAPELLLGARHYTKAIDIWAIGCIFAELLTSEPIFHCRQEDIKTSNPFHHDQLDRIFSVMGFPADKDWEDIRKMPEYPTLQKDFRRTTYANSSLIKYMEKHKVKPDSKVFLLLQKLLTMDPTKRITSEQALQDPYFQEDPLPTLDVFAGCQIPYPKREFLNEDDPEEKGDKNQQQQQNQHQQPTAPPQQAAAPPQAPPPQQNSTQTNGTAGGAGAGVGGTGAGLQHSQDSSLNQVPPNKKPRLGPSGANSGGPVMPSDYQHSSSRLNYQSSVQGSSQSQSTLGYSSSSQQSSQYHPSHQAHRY
# Sequence of UniProt Q9UQB9 (whole entry, looked up): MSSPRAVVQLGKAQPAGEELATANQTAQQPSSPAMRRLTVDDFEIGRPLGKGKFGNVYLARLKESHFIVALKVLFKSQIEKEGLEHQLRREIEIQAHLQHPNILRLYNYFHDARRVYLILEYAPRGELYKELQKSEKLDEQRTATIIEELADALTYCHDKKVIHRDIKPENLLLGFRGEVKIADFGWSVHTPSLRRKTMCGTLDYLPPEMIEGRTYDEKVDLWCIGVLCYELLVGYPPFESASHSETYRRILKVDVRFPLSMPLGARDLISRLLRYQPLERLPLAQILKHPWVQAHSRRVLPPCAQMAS
# Sequence of UniProt P11362 (whole entry, looked up): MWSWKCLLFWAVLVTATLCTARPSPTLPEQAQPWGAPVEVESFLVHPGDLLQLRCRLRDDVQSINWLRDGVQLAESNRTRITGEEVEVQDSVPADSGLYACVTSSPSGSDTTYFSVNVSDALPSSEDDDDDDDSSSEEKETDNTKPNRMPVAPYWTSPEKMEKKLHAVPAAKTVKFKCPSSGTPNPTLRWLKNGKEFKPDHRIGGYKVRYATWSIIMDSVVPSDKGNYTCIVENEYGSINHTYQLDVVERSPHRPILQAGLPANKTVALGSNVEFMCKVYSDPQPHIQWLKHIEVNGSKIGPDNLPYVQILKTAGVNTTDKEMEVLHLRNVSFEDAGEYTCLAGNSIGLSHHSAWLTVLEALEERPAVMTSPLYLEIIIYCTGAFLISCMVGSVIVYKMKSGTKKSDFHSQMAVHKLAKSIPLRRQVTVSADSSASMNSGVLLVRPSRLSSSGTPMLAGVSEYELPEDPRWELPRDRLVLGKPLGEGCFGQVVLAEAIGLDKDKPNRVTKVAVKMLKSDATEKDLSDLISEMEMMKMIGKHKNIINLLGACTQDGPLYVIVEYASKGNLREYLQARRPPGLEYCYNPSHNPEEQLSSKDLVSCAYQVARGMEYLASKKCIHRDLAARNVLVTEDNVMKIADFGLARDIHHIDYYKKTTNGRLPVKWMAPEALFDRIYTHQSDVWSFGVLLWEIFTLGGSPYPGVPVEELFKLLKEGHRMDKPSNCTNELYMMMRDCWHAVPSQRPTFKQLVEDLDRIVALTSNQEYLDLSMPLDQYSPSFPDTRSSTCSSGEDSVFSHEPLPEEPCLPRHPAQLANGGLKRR

# Sample 1
# Target: Receptor tyrosine-protein kinase erbB-2 (ERBB2, Homo sapiens, UniProt P04626)
# Observed: enzyme activity
# Mode: inhibitor
# Concentration: 0.5 µM
# Reference: control
Compound,remaining activity [%]
Cn1sc(=O)n(Cc2ccccc2)c1=O,106
Nc1ncnc2n[nH]c(Nc3ccc(F)cc3)c12,101
O=C1NC(=O)C(c2cn(CCCn3ccnc3)c3ccccc23)=C1Nc1ccccc1,93.6
Nc1ccc2ncnc(NCCc3ccc(Oc4ccccc4)cc3)c2c1,108
COc1ccc(CNC(=O)Nc2ncc([N+](=O)[O-])s2)cc1,96.9
COc1cc2ncnc(Nc3ccc(F)c(Cl)c3)c2cc1OCCCN1CCOCC1,34.2
Cc1nc(-c2ccccc2)c(-c2ccncc2)o1,105
CO[C@H]1C[C@@H]2CC[C@@H](C)[C@@](O)(O2)C(=O)C(=O)N2CCCC[C@H]2C(=O)O[C@H]([C@H](C)C[C@@H]2CC[C@@H](O)[C@H](OC)C2)CC(=O)[C@H](C)/C=C(\C)[C@@H](O)[C@@H](OC)C(=O)[C@H](C)C[C@H](C)/C=C/C=C/C=C/1C,97.3
CN(C)c1ccc(C=C2C(=O)Nc3ccccc32)cc1,91
COc1ccc(OC)c2c(=S)c3ccccc3[nH]c12,93.6

# Sample 2
# Observed: AlphaScreen signal
# Method: AlphaScreen counter screen
# Sample: His6 peptide without bromodomain
# Concentration: 50 µM
# Setting: assay interference check
Structure (SMILES),inhibition [%]
O=[N+]([O-])c1cnc(Nc2cccc(Cl)c2)nc1Nc1cccc(Cl)c1,29.4
S=C(NCc1ccc2c(c1)OCO2)N1CCN(c2ncnc3c2oc2ccccc23)CC1,29.7
COc1ccc(-c2nnc3ccc(SC(C(C)=O)C(C)=O)nn23)cc1OC,-1.1
Nc1nc(Nc2ccccc2)sc1C(=O)c1ccc(Cl)s1,66
Cc1ccc(NC(=O)c2ccc(CN3CCN(C)CC3)cc2)cc1Nc1nc(-c2cccnc2)cs1,56.6
CC(Cl)C(=O)C(C#N)=C1Nc2ccccc2S1 (centres unmarked),27
Nc1n[nH]c2nc3ccccc3nc12,7.65
N#CCCc1ccc2c(c1)-c1[nH]c3ccc([N+](=O)[O-])cc3c1CC(=O)N2,8.45
COc1cc2ncnc(Nc3ccc(F)c(Cl)c3)c2cc1OCCCN1CCOCC1,20.1

# Sample 3
# SMILES: CN([C@@H]1CCc2c(CC(=O)O)c3ccccc3n2C1)S(=O)(=O)c1ccc(F)cc1
# Concentration: 1 µM
target,assay,remaining binding
"Fibroblast growth factor receptor 1 (FGFR1, Homo sapiens, UniProt P11362)","cell-free assay, competition with immobilised ligand",100%
"Epidermal growth factor receptor (EGFR, Homo sapiens, UniProt P00533, T790M)","cell-free assay, competition with immobilised ligand",100%
"Aurora kinase C (AURKC, Homo sapiens, UniProt Q9UQB9)","cell-free assay, competition with immobilised ligand",100%
"Dual specificity tyrosine-phosphorylation-regulated kinase 1B (DYRK1B, Homo sapiens, UniProt Q9Y463)","cell-free assay, competition with immobilised ligand",44%
"Receptor-type tyrosine-protein kinase FLT3, autoinhibited (FLT3, Homo sapiens, UniProt P36888)","cell-free assay, competition with immobilised ligand",100%
"Cyclin-dependent kinase 19 (CDK19, Homo sapiens, UniProt Q9BWU1)",competition binding,94%
"Epidermal growth factor receptor (EGFR, Homo sapiens, UniProt P00533, del746-750)","cell-free assay, competition with immobilised ligand",100%

# Sample 4
# Cell line: A-375
# Concentration: 100 µM
# Time: 36 h
SMILES,viability [%]
CCCCC[C@H](O)/C=C/[C@H]1[C@H](O)CC(=O)[C@@H]1CCCCCCC(=O)O,118
CO/N=C(\C(=O)N[C@@H]1C(=O)N2C(C(=O)OCOC(=O)C(C)(C)C)=C(/C=C\c3scnc3C)CS[C@H]12)c1csc(N)n1,44.5
Cc1nc(-c2ccc(OCC(C)C)c(C#N)c2)sc1C(=O)O,99.2
COc1cc(NC(C)CCCN)c2ncccc2c1 (centres unmarked),0.262
C[C@]12CCC(=O)C=C1C=C[C@@H]1[C@@H]2CC[C@@]2(C)[C@H]1CC[C@@]21CCC(=O)O1,61.4
C[C@H]1COc2c(N3CCN(C)CC3)c(F)cc3c(=O)c(C(=O)O)cn1c23,105

# Repeated from above (sample 4):
SMILES,viability [%]
CO/N=C(\C(=O)N[C@@H]1C(=O)N2C(C(=O)OCOC(=O)C(C)(C)C)=C(/C=C\c3scnc3C)CS[C@H]12)c1csc(N)n1,44.5
Cc1nc(-c2ccc(OCC(C)C)c(C#N)c2)sc1C(=O)O,99.2
COc1cc(NC(C)CCCN)c2ncccc2c1 (centres unmarked),0.262
C[C@]12CCC(=O)C=C1C=C[C@@H]1[C@@H]2CC[C@@]2(C)[C@H]1CC[C@@]21CCC(=O)O1,61.4
C[C@H]1COc2c(N3CCN(C)CC3)c(F)cc3c(=O)c(C(=O)O)cn1c23,105
